Published values pooled from the literature.
Protocols differ between the studies behind these lines.
ABCB1: ATP-dependent translocase ABCB1 (ABCB1, Homo sapiens, UniProt P08183)
Sequence of UniProt P08183 (whole entry, looked up): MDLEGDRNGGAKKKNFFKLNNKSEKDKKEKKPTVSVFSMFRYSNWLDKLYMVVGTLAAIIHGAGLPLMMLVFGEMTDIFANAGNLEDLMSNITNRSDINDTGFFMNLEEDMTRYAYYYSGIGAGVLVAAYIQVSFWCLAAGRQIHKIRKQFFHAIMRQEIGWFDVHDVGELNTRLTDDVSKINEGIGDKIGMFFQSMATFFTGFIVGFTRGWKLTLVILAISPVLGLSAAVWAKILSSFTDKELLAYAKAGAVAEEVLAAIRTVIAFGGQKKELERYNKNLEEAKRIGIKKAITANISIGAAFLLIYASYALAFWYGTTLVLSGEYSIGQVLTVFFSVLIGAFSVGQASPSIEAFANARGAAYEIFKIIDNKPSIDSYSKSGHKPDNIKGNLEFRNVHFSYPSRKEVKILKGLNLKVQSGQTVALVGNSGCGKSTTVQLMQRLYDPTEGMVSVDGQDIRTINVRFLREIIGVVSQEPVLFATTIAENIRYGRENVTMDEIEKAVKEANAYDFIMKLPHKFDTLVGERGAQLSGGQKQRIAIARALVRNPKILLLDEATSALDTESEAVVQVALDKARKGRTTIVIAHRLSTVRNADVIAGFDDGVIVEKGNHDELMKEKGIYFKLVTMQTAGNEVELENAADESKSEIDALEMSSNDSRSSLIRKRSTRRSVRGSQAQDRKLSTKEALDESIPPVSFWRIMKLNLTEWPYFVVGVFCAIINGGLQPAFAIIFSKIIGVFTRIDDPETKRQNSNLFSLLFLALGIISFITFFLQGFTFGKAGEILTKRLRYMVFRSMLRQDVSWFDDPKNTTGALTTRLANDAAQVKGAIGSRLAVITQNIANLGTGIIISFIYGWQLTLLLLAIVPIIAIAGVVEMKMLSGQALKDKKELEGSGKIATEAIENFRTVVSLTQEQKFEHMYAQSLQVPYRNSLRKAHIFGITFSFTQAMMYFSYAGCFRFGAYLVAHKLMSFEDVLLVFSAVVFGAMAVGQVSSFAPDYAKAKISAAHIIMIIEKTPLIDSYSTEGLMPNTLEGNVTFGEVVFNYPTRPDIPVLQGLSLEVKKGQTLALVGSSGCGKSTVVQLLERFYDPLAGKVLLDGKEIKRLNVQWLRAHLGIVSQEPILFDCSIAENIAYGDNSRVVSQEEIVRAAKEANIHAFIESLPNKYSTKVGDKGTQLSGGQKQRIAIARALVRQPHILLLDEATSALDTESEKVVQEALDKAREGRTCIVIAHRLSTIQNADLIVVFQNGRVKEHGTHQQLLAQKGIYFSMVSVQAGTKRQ
Sequence of UniProt P16662 (whole entry, looked up): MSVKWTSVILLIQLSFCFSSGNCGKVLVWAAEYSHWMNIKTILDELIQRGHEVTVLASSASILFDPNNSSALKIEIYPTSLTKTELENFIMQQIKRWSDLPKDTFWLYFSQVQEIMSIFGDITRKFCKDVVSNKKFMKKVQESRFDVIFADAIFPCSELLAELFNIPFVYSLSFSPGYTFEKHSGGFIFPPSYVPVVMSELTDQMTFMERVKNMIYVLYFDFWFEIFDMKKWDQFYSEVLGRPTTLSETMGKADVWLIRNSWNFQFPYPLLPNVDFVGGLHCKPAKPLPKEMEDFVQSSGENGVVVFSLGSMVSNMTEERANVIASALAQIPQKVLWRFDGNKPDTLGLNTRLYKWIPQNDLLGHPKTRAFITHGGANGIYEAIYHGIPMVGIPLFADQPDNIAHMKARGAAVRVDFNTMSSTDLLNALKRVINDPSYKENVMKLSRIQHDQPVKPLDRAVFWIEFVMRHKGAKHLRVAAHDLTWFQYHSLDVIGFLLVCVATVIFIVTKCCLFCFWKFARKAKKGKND

| SMILES | tested on | assay | system | conditions | how to read | endpoint | value |
| --- | --- | --- | --- | --- | --- | --- | --- |
| CCN(CC)Cc1ccc2cc(COC(=O)Nc3ccc(C(=O)NO)cc3)ccc2c1 | African green monkey cells | – | – | 5 days | – | CC50 | 0.767 µM |
| CC(C)CC(=O)OC[C@H]1O[C@@](C#N)(c2ccc3c(N)ncnn23)[C@H](O)[C@@H]1O | ABCB1 | – | Caco-2 | 90 µM, together with: zosuquidar 25 µM | – | Papp A to B | 0.353 ×10⁻⁶ cm/s |
| CC(CN1c2ccccc2Sc2ccccc21)N(C)C (stereo not drawn) | African green monkey cells | – | – | 5 days | – | CC50 | 33.1 µM |
| CC(=O)Oc1ccc2c3c1O[C@H]1[C@@H](OC(C)=O)C=C[C@H]4[C@@H](C2)N(C)CC[C@@]341 | – | – | rat, whole blood | 1000 nM, 4 freeze-thaw cycles | – | stability bias | 1.41% |
| Cc1cc(C(=O)NC(C)(C)COc2cccc3c2C(N)=NS(=O)(=O)N3)cc(C)n1 | Salmonella typhimurium | Ames test, confirmatory | TA1537 | 5000 µg/plate, together with: rat liver S9 | relative to: solvent control | revertant ratio | 1.2 |
| CN(C)CCCn1cc(-c2ccccc2)c(-c2ccccc2)n1 | African green monkey cells | – | – | 5 days | – | CC50 | 39.8 µM |
| CC(=O)O[C@H]1C=C[C@H]2[C@H]3Cc4ccc(O)c5c4[C@@]2(CCN3C)[C@H]1O5 | – | – | rat, whole blood | 1000 nM, 4 freeze-thaw cycles | – | stability bias | 3.95% |
| COc1cc(C(=O)OCCCN2CCCN(CCCOC(=O)c3cc(OC)c(OC)c(OC)c3)CC2)cc(OC)c1OC | African green monkey cells | – | – | 5 days | – | CC50 | 28.2 µM |
| COC(=O)[C@H]1[C@@H](OC(=O)c2ccccc2)C[C@@H]2CC[C@H]1N2C | – | – | rat, whole blood | 1000 nM, 4 months, -80 °C, long-term storage | – | stability bias | 3.7% |
| O=C1c2c(O)c(=O)ccn2N([C@@H]2c3ccccc3SCc3c2ccc(F)c3F)[C@@H]2COCCN12 | – | – | BALB/c mice, plasma | oral, 1.5 mg/kg baloxavir marboxil, 10 h | – | plasma concentration | 1.95 ng/mL |
| C[C@]1(CO)Cc2ncn(-c3ccc(C#N)c(Cl)c3)c2C(=O)O1 | – | – | human, plasma | 20 mg, first dose fasted | – | tmax | 1 h |
| O=c1[nH]c2ccccc2n1CCCN1CCN(C(c2ccccc2)c2ccccc2)CC1 | African green monkey cells | – | – | 5 days | – | CC50 | 12.6 µM |
| CC(C)CN(C[C@@H](O)[C@H](Cc1ccccc1)NC(=O)O[C@H]1CO[C@H]2OCC[C@H]21)S(=O)(=O)c1ccc(N)cc1 | ABCB1 | transport, inhibitor | – | 100 µM, 5 (unit not given), pH 7, together with: NMN | – | inhibition | 86.3% |
| O=C(NCc1cccnc1)Nc1ccc([N+](=O)[O-])cc1 | mouse DRG neurons | neurite degeneration | – | 50 µM, 48 h | relative to: vehicle | degeneration index difference | 64.9 |
| OCCN1CCN(CCC=C2c3ccccc3Sc3ccc(C(F)(F)F)cc32)CC1 | African green monkey cells | – | – | 5 days | – | CC50 | 7.67 µM |
| CN1CC[C@]23c4c5ccc(O[C@@H]6O[C@H](C(=O)O)[C@@H](O)[C@H](O)[C@H]6O)c4O[C@H]2[C@@H](O)C=C[C@H]3[C@H]1C5 | – | – | rat, whole blood | 1000 nM, 4 freeze-thaw cycles | – | stability bias | -12.8% |
| COc1cc2c(Oc3ccc4[nH]c(C)cc4c3F)ccnc2cc1OCC1(N)CC1 | – | – | paediatric recurrent refractory sarcoma | 12 mg | – | grade 1 or 2 Headache | 27.3% |
| O=C(O)c1cn(Cc2ccc(F)cc2)c2ccccc12 | UGT2B7 (Homo sapiens, UniProt P16662) | glucuronidation, recombinant enzyme | – | – | relative to: UGT1A10 over UGT2B7 | CLint ratio | 20 fold |
| O=C1c2c(O)cccc2Cc2cccc(O)c21 | African green monkey cells | – | – | 5 days | – | CC50 | > 100 µM |
| CN1CC[C@@H](c2c(O)cc(O)c3c(=O)cc(-c4ccc(C(F)(F)F)cc4Cl)oc23)[C@@H]1CO | – | refers to: Diarrhea | B-cell malignancies or AML | oral, 50 mg, continuous dosing | – | patients with adverse event | 25% |
| O=c1ccc2ccccc2o1 | NHEK | cell count | – | concentration not given, 24 h, apoptosis, necrosis, cell cycle panel | – | chance response | 0.02% |
| CNCCC=C1c2ccccc2CCc2ccccc21 | African green monkey cells | – | – | 5 days | – | CC50 | 24 µM |
| CO[C@H]1C[C@@H]2CC[C@@H](C)[C@@](O)(O2)C(=O)C(=O)N2CCCC[C@H]2C(=O)O[C@H]([C@H](C)C[C@@H]2CC[C@@H](OC(=O)NCCOCCOCCOCCOCCOCCOCCOCCOCCC(=O)N3CCc4cc(Cn5nc(-c6ccc7oc(N)nc7c6)c6c(N)ncnc65)ccc4C3)[C@H](OC)C2)C[C@@H](O)[C@H](C)/C=C(\C)[C@@H](O)[C@@H](OC)C(=O)[C@H](C)C[C@H](C)/C=C/C=C/C=C/1C | – | refers to: treatment-emergent AEs | patients with advanced solid tumours | intravenous, dose not given, any grade, all doses | – | patients with AE | 0% |
| CN1[C@H]2CC[C@@H]1[C@@H](C(=O)O)[C@@H](OC(=O)c1ccccc1)C2 | – | – | rat, whole blood | 10 nM, 4 months, -80 °C, long-term storage | – | stability bias | -15.7% |
| CO[C@H]1/C=C/O[C@@]2(C)Oc3c(C)c(O)c4c(O)c(c(/C=N/N5CCN(C6CCCC6)CC5)c(O)c4c3C2=O)NC(=O)/C(C)=C\C=C\[C@H](C)[C@H](O)[C@@H](C)[C@@H](O)[C@@H](C)[C@H](OC(C)=O)[C@@H]1C | Syrian hamster cells | – | – | – | – | CC50 | 128 µM |
| COC(=O)[C@@H]1[C@H]2CC[C@@H](C[C@@H]1O)N2C | – | – | rat, whole blood | 10 nM, 4 months, -80 °C, long-term storage | – | stability bias | 15% |
| COc1cccc(-c2n[nH]c(SCc3ccccn3)n2)c1OC | Escherichia coli | Ames test, plate incorporation | WP2 uvrA | 2.0 mg/plate, without S9 | – | revertant colonies per plate | 30 |
